# Results of several laboratories.
# Compare with care: the assays were run in different laboratories. “And” joins repeats or separate records; there may be more than shown. ± gives the spread as reported.
SMILES,assay,system,setting,scale,measurement,value
CO[C@@H]1[C@@H](OC(N)=O)[C@@H](O)[C@H](Oc2ccc3c(O)c(NC(=O)c4ccc(O)c(CC=C(C)C)c4)c(=O)oc3c2C)OC1(C)C,starch gel membrane permeability,Gram-negative envelope surrogate,"200 µM, 20 min, pH 7.4",,amount permeated,0.76 nmol
Cl.[2H]C([2H])([2H])CC(=O)c1cnc(NC(=O)C2CC2)cc1Nc1cccc(-c2ncn(C([2H])([2H])[2H])n2)c1OC,geometric mean,human,"oral, 10 mg single dose, fasted, liquid",,half-life,9.26 h
Cn1c(=O)[nH]c2ncn(C)c2c1=O,,"human, both sexes, plasma",,,samples above LOQ,100%
Cc1cn([C@H]2C[C@H](N=[N+]=[N-])[C@@H](CO)O2)c(=O)[nH]c1=O,,"human, both sexes, PBMCs","oral, 600 mg, single dose",,MRT(0-inf),14.9 ± 32.4 h
CCn1cc(C(=O)O)c(=O)c2cnc(N3CCNCC3)nc21,starch gel membrane permeability,Gram-negative envelope surrogate,"200 µM, 10 min, pH 7.4",,amount permeated,0.89 nmol
CCCCCCOC(=O)NC(=N)c1ccc(NCc2nc3cc(C(=O)N(CCC(=O)OCC)c4ccccn4)ccc3n2C)cc1,,human,"oral, 75 mg, compound alone",,participants with TRAE headache,0%
O=C1NC(=O)C(c2ccccc2)(c2ccccc2)N1,,"Sprague-Dawley rat, serum","po, 40 mg/kg, 6 h",,AST/ALT ratio,1.52 and 2.22
Cn1cc(Nc2nccc(-c3ccc4c(c3)CN(C3COC3)CC[C@H]4NC(=O)c3cn(C(C)(C)C)nn3)n2)cn1,,"human, whole blood","50 mg twice daily, day 7",relative to: pre-dose baseline,NK cell count change,151%
CSc1ccccc1C(=O)NCCn1cc(C(=O)NCc2cccc(C)n2)c(=O)c2cc3c(cc21)OC(F)(F)O3,,"Sprague-Dawley rat, male, plasma","intramuscular, 3 mg/kg of parent drug",,Tmax,3.67 ± 2.19 h
COc1ccc2nc([S+]([O-])Cc3ncc(CO)c(OC)c3C)[nH]c2c1 (stereo not drawn),,"human, dried plasma spots","4 h, added: rifampicin pretreatment",relative to: induced over baseline,R/S enantiomer ratio fold change,0.01
C=CC(=O)NC1CCN(c2ncc3ncnc(Nc4ccc(Oc5ccc6c(c5)ncn6C)c(C)c4)c3n2)CC1,,"human, male","oral, 240 mg, treatment-related adverse event",,participants with headache,18.8%
CCO[C@H]1CCN(Cc2c(OC)cc(C)c3[nH]ccc23)[C@H](c2ccc(C(=O)O)cc2)C1,,"PNH patients, active haemolysis","oral, 25 mg, 4 weeks, treatment",,incidence of back pain,0%
C[C@@H](N)C1CCN(S(=O)(=O)c2cccc3cnccc23)CC1,,"healthy volunteers, fasted, plasma","oral, 150 mg",,duration of quantifiable plasma levels,≤ 8 h
NC1(C(=O)N[C@@H](CCO)c2ccc(Cl)cc2)CCN(c2nc[nH]c3nccc2-3)CC1,,metastatic CRPC patients,"dose not given, any grade, treatment-related, all doses, added: enzalutamide 160 mg daily",,incidence of Somnolence,6.7%
CC[C@H](C)CCCCC(=O)N[C@@H](CCN)C(=O)N[C@H](C(=O)N[C@@H](CCN)C(=O)N[C@H]1CCNC(=O)[C@H]([C@@H](C)O)NC(=O)[C@H](CCN)NC(=O)[C@H](CCN)NC(=O)[C@H](CC(C)C)NC(=O)[C@@H](Cc2ccccc2)NC(=O)[C@H](CCN)NC1=O)[C@@H](C)O,,"mild renal insufficiency patients, plasma","IV, 0.75 mg/kg, geometric least squares mean",,AUC(0-last),19.7 µg·h/mL
CC(C)C[C@H](NC(=O)[C@@H](Cc1c[nH]c2ccccc12)NC(=O)[C@H](Cc1ccc(O)cc1)NC(=O)[C@H](CO)NC(=O)[C@H](Cc1c[nH]c2ccccc12)NC(=O)[C@H](Cc1c[nH]cn1)NC(=O)[C@@H]1CCC(=O)N1)C(=O)N[C@@H](CCCNC(=N)N)C(=O)N1CCC[C@H]1C(=O)NCC(N)=O,,"Chinese CPP children, girls","intramuscular, 22.5 mg, 12 months, day 1, month 6",,"patients, drug-related TEAEs",16.1%
CCCn1cc(C)c2c(=O)[nH]c(-c3cc(S(=O)(=O)N4CCN(CC)CC4)ccc3OCC)nc21,,human,concentration not given,,number of treatment-related AEs,40
CCc1nc(C(N)=O)c(Nc2ccc(N3CCC(N4CCN(C)CC4)CC3)c(OC)c2)nc1NC1CCOCC1,,"Japanese patients, plasma","oral, 20 mg, cycle 1 day 28, multiple doses, mean",,AUCtau,1.35 µg·h/mL
N#Cc1ccc2c(c1)[C@H]1CCCN(C(=O)c3ccc4[nH]cnc4c3)[C@H]1C2,,human,"80 mg, end of trial",,minimum ACTH level,1.6 pmol/L
O=S(=O)(O)Oc1cc(O)cc(/C=C/c2ccc(O)cc2)c1,,"human, plasma",,,samples above LOQ,100%
CC(C)=CCc1cc2c(cc1O)O[C@H](c1ccc(O)cc1)CC2=O,,liver microsomes,seven species incl. human,,species difference in phase I CLint,~12.1 fold
COc1cc2c(cc1OC)C(=O)C(CC1CCN(Cc3ccccc3)CC1)C2 (stereo not drawn),"Bond-Lader VAS, refers to: Mood",human,dose not given,"relative to: placebo, direction not given",VAS score change,2.66 mm
O=C(O)Cc1ccc(O)c(O)c1,,human plasma,median,,plasma concentration,1.37 µM
O=C1CCC(N2Cc3cc(CO)c(F)cc3C2=O)C(=O)N1 (stereo not drawn),,"cynomolgus monkey, male","oral, 0.3 mg/kg parent drug, 8 h",,plasma concentration,0.1 ng/mL
COc1ccc2c(=O)n(C)c(-c3ccccc3)nc2c1,,"Sprague-Dawley rat, male, bladder","oral, 30 mg/kg, 2 h",relative to: bladder over plasma,tissue/plasma ratio,8.65
Cn1cc(Nc2nc(N)nc(-c3cccc(-n4ccc5cc(C6CC6)cc(F)c5c4=O)c3CO)n2)cn1,,"healthy humans, fed","oral tablet, 300 mg twice daily (multiple dose), 14 (unit not given)",relative to: subjects,drug-related vomiting incidence,0%
C[C@@H]1CCO[C@H]2Cn3cc(C(=O)NCc4ccc(F)cc4F)c(=O)c(O)c3C(=O)N12,,"human paediatric patients, weight sample B to under sample C kg, plasma","oral, 30 mg dispersible tablet, steady state, geometric mean, population PK post-hoc, N 5",,AUC(0-24),78.3 µg·h/mL
O=C(N[C@H](CO)[C@H](O)c1ccc([N+](=O)[O-])cc1)C(Cl)Cl,starch gel membrane permeability,Gram-negative envelope surrogate,"200 µM, 20 min, pH 7.4",,amount permeated,1.98 nmol
CCO[C@H]1CCN(Cc2c(OC)cc(C)c3[nH]ccc23)[C@H](c2ccc(C(=O)O)cc2)C1,,C57BL/6 mouse,"oral, 10 mg/kg, dose-normalised to 1 mg/kg",,AUC(0-7 h),760 nM·h
CCOc1c([C@H](C)n2nc(C)c3c(N)ncnc32)cc(Cl)c(F)c1[C@@H]1CNC(=O)C1,refers to: QTcF above 500 ms,previously treated B-cell malignancy,"oral, 15 mg once daily, baseline QTcF ≤450 ms",,ECG observations,0%
Cc1ccc([C@@H]2O[C@H](CO)[C@@H](O)[C@H](O)[C@H]2O)cc1Cc1ccc(-c2ccc(F)cc2)s1,,Japanese type 2 diabetes patients,"400 mg, day 2, 24 h urine collection",relative to: baseline,urinary potassium excretion change,-4.74 mEq
CCN1/C(=C/C(C)=O)Sc2ccc(F)cc21,,cynomolgus monkey,"oral, 30 mg/kg, 2 h post-dose",,heart rate,116 ± 25 beats/min
O=c1c(O)c(-c2ccc(O)cc2O)oc2cc(O)cc(O)c12,,human plasma,"median, both sexes",,plasma concentration,0.0713 µM
Cc1nc(-c2cnc(NC(C)C)n(C)c2=O)ccc1Oc1ccnc(-c2cnn(C)c2)c1,,"Beagle dog, male, plasma","oral, 10 mg/kg, crossover study, mean",,oral bioavailability,27.8%
Cc1cc(-c2ccc3cc[nH]c(=O)c3c2)ccc1O[C@H]1O[C@H](CO)[C@@H](O)[C@H](O)[C@@H]1O,,"male Sprague-Dawley rat, plasma","oral, 10 mg/kg, group mean",,AUC(0-all),0.0296 µg·h/mL
Cc1cc(C)c(CNC(=O)c2cc(Cl)c3c(c2C)O[C@@](C)([C@H]2CC[C@H](N(C)C)CC2)O3)c(=O)[nH]1,,human relapsed/refractory NHL,"oral, 200 mg once daily, onset day 1 to 14",,GGT increased grade ≥3,0%
COc1ccc(CCC(=O)O)cc1OS(=O)(=O)O,,human plasma,mean,,plasma concentration,0.381 µM
C[C@@H](O)[C@H]1C(=O)N2C(C(=O)O)=C(SCCN=CN)C[C@H]12,starch gel membrane permeability,Gram-negative envelope surrogate,"200 µM, 90 min, pH 7.4",,amount permeated,5.04 nmol
O=C(O)Cc1cccc(O)c1,,human plasma,median,,plasma concentration,12.1 µM
O=C(Nc1nc2cccc(-c3ccc(CN4CCS(=O)(=O)CC4)cc3)n2n1)C1CC1,refers to: diarrhoea,human rheumatoid arthritis patients,"oral, 300 mg once daily, 4 weeks, regardless of relatedness",,treatment-emergent adverse events,0%
Cc1noc(C)c1-c1cc(C(O)(c2ccccn2)c2ccccn2)c2nc(C3CC3)[nH]c2c1,,"human male, fasted, plasma","oral, 3 mg once daily, cycle 1 day 8",,AUCtau,3.76 µg·h/mL
CCc1cc(C(=O)NC)c2nccc(N3CCc4c(cc(Cn5ccnc5)cc4-c4cn(C)nc4C(F)(F)F)C3=O)c2c1,,"Sprague Dawley rats, male, plasma","oral, 100 mg/kg twice daily, 7 days",,AUC extrapolated,0%
CC(Oc1ccc(O)cc1)C(=O)O (stereo not drawn),,human plasma,mean,,plasma concentration,0.347 µM
CC(C)(C(=O)N1CCOc2c(C#N)cncc2C1)C(F)F,refers to: disturbance in attention,human,"oral, 20 mg once daily, 14 days, multiple ascending dose",,subjects with adverse event,0%
O=C(COc1ccc(Cl)cc1)NC12CC(c3nnc([C@H]4C[C@@H](OC(F)(F)F)C4)o3)(C1)C2,,human both sexes,"oral, 200 mg once daily, 14 days",,participants with procedural pain,14.3%
CNCc1ccc(-c2[nH]c3cc(F)cc4c3c2CCNC4=O)cc1,refers to: dyspnea,human patients,"oral, 600 mg twice daily, grade 2",,patients with adverse event,3.8%
O=C(O)CCC(=O)O.[2H]C([2H])([2H])Oc1cc(C)c2[nH]ccc2c1CN1CC[C@@H](C2CC2)C[C@H]1c1ccc(C(=O)O)cc1,multiple ascending dose,healthy Chinese subjects,300 mg once daily,,subjects with TEAE Constipation,0%
Cc1nc2cccc(OCC(C)(C)C(=O)NC(C)C)c2c(N)c1C(=O)O,,"male Sprague-Dawley rat, plasma","dietary, 100 mg/kg/day",relative to: day 90 over day 7,Cmax ratio,2.92
CCCCOc1nc(N)c2c(n1)N(Cc1cccc(CN3CCCC3)c1)CC(=O)N2,refers to: Nausea,human,"oral, 2 mg",,drug-related TEAE incidence,0%
Cc1nc2ccc(OCc3ccc(C(F)(F)F)cc3)cc2[nH]1,,"male Balb/c mice, lungs","oral, 10 mg/kg, 72 h",relative to: tissue over plasma,tissue/plasma ratio,6.6 ± 2.9
Cc1ccc(C(=O)N(CCCN)C(c2nc3snc(C)c3c(=O)n2Cc2ccccc2)C(C)C)cc1 (stereo not drawn),hypophosphataemia grade ≥3 (CTCAE),human patients,"intravenous, 10 mg/day",,patients with adverse event,0%
FC(F)(F)c1ccc(CNc2ccc(Cc3c[nH]c4ncc(Cl)cc34)cn2)cn1,refers to: blood alkaline phosphatase increased,patients with advanced solid tumours,"oral, dose not given, grade 1 and 2, possibly related to drug",,adverse event incidence,15%
CC(C)c1nc(CN(C)C(=O)N[C@H](C(=O)N[C@@H](Cc2ccccc2)C[C@H](O)[C@H](Cc2ccccc2)NC(=O)OCc2cncs2)C(C)C)cs1,,"Macaca nemestrina, plasma","intravenous, time-averaged",,minimum DcNP-associated fraction,> 87%
CCCCOC(=O)N1CCN(C(=O)[C@H](CP(=O)(O)O)NC(=O)c2cc(N3CC[C@H](OC)C3)nc(-c3ccccc3)n2)CC1,,human,"subcutaneous, 16 mg, 1 h post-dose",relative to: baseline,change in heart rate,-4.4 ± 5.7 beats/min
Cc1c2oc3c(C)ccc(C(=O)N[C@@H]4C(=O)N[C@H](C(C)C)C(=O)N5CCC[C@H]5C(=O)N(C)CC(=O)N(C)[C@@H](C(C)C)C(=O)O[C@@H]4C)c3nc-2c(C(=O)N[C@@H]2C(=O)N[C@H](C(C)C)C(=O)N3CCC[C@H]3C(=O)N(C)CC(=O)N(C)[C@@H](C(C)C)C(=O)O[C@@H]2C)c(N)c1=O,population PK model,human,,,V1,3.9 L/70 kg
CCn1cc(C(=O)O)c(=O)c2ccc(C)nc21,starch gel membrane permeability,Gram-negative envelope surrogate,"200 µM, 45 min, pH 7.4",,amount permeated,3.57 nmol
COc1cc2nccc(Oc3ccc(NC(=O)c4cc5c(n(-c6ccccc6)c4=O)CCCC5=O)nc3)c2cc1OC,,relapsed or refractory AML,"oral, all dose levels",,grade ≥3 Thrombocytopenia patients,10%

# Excerpt of the above:
SMILES,assay,system,setting,scale,measurement,value
Cc1cc(-c2ccc3cc[nH]c(=O)c3c2)ccc1O[C@H]1O[C@H](CO)[C@@H](O)[C@H](O)[C@@H]1O,,"male Sprague-Dawley rat, plasma","oral, 10 mg/kg, group mean",,AUC(0-all),0.0296 µg·h/mL
Cc1cc(C)c(CNC(=O)c2cc(Cl)c3c(c2C)O[C@@](C)([C@H]2CC[C@H](N(C)C)CC2)O3)c(=O)[nH]1,,human relapsed/refractory NHL,"oral, 200 mg once daily, onset day 1 to 14",,GGT increased grade ≥3,0%
COc1ccc(CCC(=O)O)cc1OS(=O)(=O)O,,human plasma,mean,,plasma concentration,0.381 µM
C[C@@H](O)[C@H]1C(=O)N2C(C(=O)O)=C(SCCN=CN)C[C@H]12,starch gel membrane permeability,Gram-negative envelope surrogate,"200 µM, 90 min, pH 7.4",,amount permeated,5.04 nmol
